Literature values, collected from citations in different studies.
Lines come from different studies, so protocols differ.
KDR: Vascular endothelial growth factor receptor 2 (KDR, Homo sapiens, UniProt P35968)
UniProt P35968, sequence (whole entry, looked up): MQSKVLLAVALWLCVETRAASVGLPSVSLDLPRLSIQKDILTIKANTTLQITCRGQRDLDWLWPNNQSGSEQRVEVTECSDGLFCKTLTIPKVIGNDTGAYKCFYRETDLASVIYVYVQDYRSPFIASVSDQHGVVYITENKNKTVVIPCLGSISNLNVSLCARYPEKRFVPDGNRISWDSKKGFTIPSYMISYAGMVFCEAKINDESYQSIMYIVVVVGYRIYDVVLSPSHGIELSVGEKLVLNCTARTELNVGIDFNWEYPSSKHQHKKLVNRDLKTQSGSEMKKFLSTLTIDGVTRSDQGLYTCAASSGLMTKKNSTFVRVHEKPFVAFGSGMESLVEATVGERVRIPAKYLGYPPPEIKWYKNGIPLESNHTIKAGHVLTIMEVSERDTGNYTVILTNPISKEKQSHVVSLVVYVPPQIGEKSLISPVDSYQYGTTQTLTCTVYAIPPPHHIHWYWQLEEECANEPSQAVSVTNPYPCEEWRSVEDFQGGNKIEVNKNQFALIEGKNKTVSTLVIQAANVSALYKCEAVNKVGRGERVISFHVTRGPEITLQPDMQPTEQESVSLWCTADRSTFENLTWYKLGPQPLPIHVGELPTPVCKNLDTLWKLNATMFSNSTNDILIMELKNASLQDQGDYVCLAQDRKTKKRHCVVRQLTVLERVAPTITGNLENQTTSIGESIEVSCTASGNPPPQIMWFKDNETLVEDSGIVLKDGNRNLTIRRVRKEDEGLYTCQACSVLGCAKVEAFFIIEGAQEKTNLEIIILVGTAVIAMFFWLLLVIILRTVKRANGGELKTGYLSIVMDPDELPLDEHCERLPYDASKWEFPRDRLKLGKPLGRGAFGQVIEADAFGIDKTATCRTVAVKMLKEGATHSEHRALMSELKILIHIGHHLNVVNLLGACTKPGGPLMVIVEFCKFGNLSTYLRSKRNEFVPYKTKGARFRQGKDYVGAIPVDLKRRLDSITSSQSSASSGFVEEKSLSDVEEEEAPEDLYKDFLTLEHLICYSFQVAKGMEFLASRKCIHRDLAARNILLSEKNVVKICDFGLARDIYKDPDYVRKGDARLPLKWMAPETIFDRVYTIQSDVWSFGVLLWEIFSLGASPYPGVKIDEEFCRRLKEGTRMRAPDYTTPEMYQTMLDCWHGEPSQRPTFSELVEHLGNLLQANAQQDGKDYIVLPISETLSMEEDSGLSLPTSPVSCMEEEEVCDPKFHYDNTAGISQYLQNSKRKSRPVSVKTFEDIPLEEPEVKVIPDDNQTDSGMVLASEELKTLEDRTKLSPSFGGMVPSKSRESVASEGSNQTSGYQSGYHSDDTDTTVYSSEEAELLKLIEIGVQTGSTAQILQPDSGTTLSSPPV
PSMB1/PSMB8/PSMB3: PSMB1/PSMB8/PSMB3 (Homo sapiens, UniProt P20618+P28062+P49720)
UniProt P49720, sequence (whole entry, looked up): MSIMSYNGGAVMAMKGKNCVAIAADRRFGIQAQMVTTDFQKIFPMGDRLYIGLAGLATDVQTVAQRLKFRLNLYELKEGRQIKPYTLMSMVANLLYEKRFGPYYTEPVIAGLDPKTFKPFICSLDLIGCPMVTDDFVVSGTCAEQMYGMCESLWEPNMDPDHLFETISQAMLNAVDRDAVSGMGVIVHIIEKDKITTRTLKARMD
UniProt P28062, sequence (whole entry, looked up): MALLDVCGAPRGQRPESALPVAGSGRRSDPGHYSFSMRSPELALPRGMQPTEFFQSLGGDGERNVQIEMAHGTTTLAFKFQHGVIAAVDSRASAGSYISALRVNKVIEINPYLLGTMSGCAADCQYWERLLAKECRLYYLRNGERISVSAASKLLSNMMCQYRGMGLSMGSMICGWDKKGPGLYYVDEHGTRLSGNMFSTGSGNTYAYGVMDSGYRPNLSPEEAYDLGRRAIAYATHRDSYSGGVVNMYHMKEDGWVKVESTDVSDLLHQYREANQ
UniProt P20618, sequence (whole entry, looked up): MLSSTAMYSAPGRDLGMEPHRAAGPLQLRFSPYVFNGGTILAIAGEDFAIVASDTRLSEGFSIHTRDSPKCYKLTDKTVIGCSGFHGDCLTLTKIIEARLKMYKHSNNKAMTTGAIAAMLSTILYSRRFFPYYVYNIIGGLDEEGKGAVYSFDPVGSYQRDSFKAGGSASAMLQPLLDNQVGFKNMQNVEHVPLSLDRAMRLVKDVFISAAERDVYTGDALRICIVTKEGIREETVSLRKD
CDK2: Cyclin-dependent kinase 2 (CDK2, Homo sapiens, UniProt P24941)
PTGS2: Prostaglandin G/H synthase 2 (PTGS2, Homo sapiens, UniProt P35354)
UniProt P35354, sequence (whole entry, looked up): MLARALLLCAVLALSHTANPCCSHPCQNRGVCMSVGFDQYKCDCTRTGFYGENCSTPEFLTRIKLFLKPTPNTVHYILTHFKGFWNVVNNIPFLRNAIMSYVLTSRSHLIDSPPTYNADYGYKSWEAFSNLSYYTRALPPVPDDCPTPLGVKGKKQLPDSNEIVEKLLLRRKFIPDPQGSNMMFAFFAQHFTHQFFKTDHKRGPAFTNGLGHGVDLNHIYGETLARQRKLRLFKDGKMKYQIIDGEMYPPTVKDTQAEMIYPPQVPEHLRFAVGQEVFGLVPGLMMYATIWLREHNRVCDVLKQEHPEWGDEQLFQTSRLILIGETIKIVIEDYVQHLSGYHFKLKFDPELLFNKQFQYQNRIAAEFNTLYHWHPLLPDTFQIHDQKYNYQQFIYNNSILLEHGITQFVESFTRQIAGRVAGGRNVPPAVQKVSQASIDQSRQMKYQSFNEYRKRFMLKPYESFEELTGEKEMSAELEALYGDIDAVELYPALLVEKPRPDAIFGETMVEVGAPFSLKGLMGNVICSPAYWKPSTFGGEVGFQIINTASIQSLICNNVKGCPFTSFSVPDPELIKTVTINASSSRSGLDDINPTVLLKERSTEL
UniProt P09874, sequence (whole entry, looked up): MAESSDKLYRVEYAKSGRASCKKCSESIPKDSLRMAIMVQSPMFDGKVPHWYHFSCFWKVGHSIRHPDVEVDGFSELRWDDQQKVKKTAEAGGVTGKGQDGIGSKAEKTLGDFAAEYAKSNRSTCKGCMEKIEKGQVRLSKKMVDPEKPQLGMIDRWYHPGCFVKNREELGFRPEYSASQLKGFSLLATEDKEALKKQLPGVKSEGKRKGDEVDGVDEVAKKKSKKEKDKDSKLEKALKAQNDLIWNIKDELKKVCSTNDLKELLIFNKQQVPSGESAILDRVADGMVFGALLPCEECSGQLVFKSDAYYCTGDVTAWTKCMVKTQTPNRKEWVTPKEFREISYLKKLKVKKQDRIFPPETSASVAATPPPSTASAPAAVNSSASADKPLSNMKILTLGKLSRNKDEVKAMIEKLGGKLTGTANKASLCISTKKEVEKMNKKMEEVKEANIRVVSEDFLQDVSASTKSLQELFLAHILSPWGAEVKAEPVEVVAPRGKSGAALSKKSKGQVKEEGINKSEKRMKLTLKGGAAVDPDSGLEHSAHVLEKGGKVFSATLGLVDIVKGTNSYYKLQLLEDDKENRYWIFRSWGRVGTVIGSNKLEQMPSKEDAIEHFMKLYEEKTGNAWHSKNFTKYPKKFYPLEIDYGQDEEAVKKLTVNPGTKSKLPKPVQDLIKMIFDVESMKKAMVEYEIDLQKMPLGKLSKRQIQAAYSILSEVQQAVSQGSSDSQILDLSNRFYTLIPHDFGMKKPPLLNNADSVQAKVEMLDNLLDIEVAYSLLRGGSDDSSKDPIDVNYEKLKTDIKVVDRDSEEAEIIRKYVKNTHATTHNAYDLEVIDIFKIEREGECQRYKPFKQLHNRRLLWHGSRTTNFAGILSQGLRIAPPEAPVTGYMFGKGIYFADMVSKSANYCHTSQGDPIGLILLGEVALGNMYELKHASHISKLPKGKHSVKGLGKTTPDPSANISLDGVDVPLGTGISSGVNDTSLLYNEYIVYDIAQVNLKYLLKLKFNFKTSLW
UniProt Q8TF76, sequence (whole entry, looked up): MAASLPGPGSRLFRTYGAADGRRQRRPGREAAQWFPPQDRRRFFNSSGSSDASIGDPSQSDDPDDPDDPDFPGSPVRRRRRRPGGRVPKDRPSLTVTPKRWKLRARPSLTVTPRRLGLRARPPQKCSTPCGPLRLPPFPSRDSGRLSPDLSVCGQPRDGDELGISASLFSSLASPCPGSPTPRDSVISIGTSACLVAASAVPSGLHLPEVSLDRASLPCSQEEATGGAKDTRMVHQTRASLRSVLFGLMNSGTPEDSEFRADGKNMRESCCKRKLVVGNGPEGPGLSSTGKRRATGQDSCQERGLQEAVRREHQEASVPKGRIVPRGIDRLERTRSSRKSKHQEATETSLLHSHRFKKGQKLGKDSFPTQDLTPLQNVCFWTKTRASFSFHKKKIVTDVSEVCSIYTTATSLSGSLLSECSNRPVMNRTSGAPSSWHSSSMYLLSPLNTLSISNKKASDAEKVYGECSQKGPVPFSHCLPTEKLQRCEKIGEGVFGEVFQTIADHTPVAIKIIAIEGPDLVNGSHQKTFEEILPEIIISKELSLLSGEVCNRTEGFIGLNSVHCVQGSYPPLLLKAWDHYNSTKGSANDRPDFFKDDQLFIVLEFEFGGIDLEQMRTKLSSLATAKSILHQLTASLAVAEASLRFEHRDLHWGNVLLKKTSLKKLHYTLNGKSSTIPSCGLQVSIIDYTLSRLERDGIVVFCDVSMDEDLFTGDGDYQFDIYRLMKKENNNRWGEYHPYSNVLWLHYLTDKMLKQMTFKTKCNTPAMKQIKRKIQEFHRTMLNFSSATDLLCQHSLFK
UniProt Q02127, sequence (whole entry, looked up): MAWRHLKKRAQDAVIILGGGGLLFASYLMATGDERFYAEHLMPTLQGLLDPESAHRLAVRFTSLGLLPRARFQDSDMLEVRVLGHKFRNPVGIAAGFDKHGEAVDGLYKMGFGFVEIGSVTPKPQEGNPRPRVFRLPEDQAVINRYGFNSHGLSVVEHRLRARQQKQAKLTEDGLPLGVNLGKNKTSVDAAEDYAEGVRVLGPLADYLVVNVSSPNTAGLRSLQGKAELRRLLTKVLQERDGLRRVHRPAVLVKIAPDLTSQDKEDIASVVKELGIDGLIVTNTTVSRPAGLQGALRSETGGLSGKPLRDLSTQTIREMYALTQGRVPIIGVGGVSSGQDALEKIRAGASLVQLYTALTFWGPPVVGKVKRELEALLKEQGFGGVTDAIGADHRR

Cc1ccc(F)c(NC(=O)Nc2ccc(Oc3ccnc4cc(C(=O)NCCCN5CCCC5)sc34)cc2F)c1 — IC50 (KDR; inhibitor): 3 nM
COCC(=O)N1CCC[C@H](C(=O)NCc2nc(-c3ccc(OC)cc3)cs2)C1 — IC50 (PSMB1/PSMB8/PSMB3; enzyme activity, inhibitor): > 30000 nM
CC(C)NCC(=O)N1C/C=C/CCOc2cccc(c2)-c2ccnc(n2)Nc2cccc(c2)C1 — IC50 (CDK2): 530 nM
CS(=O)(=O)Nc1cc2occ(NC=O)c(=O)c2cc1Oc1ccccc1 — IC50 (PTGS2; inhibitor): 20000 nM
CC(C)CC(CC(=O)N(C)[C@@H](Cc1ccccc1)C(N)=O)NC(=O)[C@H](CCCNC(=N)N)NC(=O)c1ccc(CN2CCNCC2)c(O)c1 (stereo partly shown) — IC50 (CDK2): 7420 nM
Cc1nccn1CCC(C(N)=O)(c1ccccc1)c1ccccc1 — IC50 (muscarinic M2 receptor): 4.13 nM
Nc1ncnc2c1ncn2C1CCCC1 — IC50 (rat adenosine A1 receptor): ~70000 nM
CN1C(=N)NC(=O)/C1=C/c1ccc(S(C)(=O)=O)cc1 — IC50 (PTGS2; inhibitor): 310 nM
O=C(O)CNC(=O)c1nc(Cl)c2ccccc2c1O — IC50 (Hypoxia-inducible factor 1-alpha inhibitor (HIF1AN, Homo sapiens, UniProt Q9NWT6); inhibitor): > 25000 nM
C[C@@H](O[C@H]1OCCN(Cc2n[nH]c(=O)[nH]2)[C@H]1c1ccc(F)cc1)c1cc(C(F)(F)F)cc(C(F)(F)F)c1 — IC50 (neurokinin-1 receptor): 0.1 nM
O=S(=O)(NCCNC/C=C/c1ccc(Br)cc1)c1cccc2cnccc12 — IC50 (Ribosomal protein S6 kinase alpha-5 (RPS6KA5, Homo sapiens, UniProt O75582); inhibitor): 120 nM
COC(=O)c1cc(O)c(O)c(O)c1 — IC50 (PTGS2; inhibitor): 43100 nM
O=C(O)C1=CC(=C(c2ccc(O)c(C(=O)O)c2)c2ccc(O)c(C(=O)O)c2)C=CC1=O — IC50 (DNA dC->dU-editing enzyme APOBEC-3A (Homo sapiens, UniProt P31941)): 30 nM
CCCCCCCCC/C=C/C(=O)CCc1ccc(O)c(OC)c1 — IC50 (PTGS2; inhibitor): 7500 nM
Cc1c(C#N)c(Nc2ccc(S(N)(=O)=O)cc2)nc2ncnc(N)c12 — IC50 (CDK2): 10000 nM
CO/N=C(\C(=O)N[C@@H]1C(=O)N2C(C(=O)O)=C(CSc3nc(=O)c(=O)[nH]n3C)CS[C@H]12)c1csc(N)n1 — IC50 (Solute carrier organic anion transporter family member 1B1 (SLCO1B1, Homo sapiens, UniProt Q9Y6L6); inhibitor): 470000 nM
CCOC(=O)/C=C/c1ccc(OC)cc1 — IC50 (PTGS2; inhibitor): 830 nM
N[C@@H]1C[C@]1(F)c1ccccc1 — IC50 (tyramine oxidase (Arthrobacter sp.); enzyme activity, inhibitor; pH 7.2, literature data, added: benzylamine 0.6 mM substrate): 190000 nM
CN(C)Cc1ccc(-c2nc3cccc4c3n2CCNC4=O)cc1 — IC50 (Poly [ADP-ribose] polymerase 1 (PARP1, Homo sapiens, UniProt P09874); enzyme activity, inhibitor): 29 nM
CN1C/C=C/CCOc2cccc(c2)-c2ccnc(n2)Nc2ccc(OC(F)(F)F)c(c2)C1 — IC50 (CDK2): 57 nM
CC1(C)S[C@@H]2[C@H](NC(=O)[C@H](N)c3ccccc3)C(=O)N2[C@H]1C(=O)O — MIC (Acinetobacter baumannii; clinical isolate RKI-No_13/16): > 16 µg/mL
CN(C/C=C/C#CC(C)(C)C)Cc1cccc2ccccc12 — IC50 (squalene epoxidase (Trichophyton rubrum)): 15.8 nM
CCCOC(=O)c1cc(O)c(O)c(O)c1 — IC50 (PTGS2; inhibitor): 16700 nM
Nc1cc(C(F)(F)F)c(-c2nc(N3CCOCC3)nc(N3CCOCC3)n2)cn1 — remaining activity (Serine/threonine-protein kinase haspin (HASPIN, Homo sapiens, UniProt Q8TF76); enzyme activity; 10 µM; reference: untreated): 70%
CCS(=O)(=O)c1ccc2cc1CN(C)C/C=C/CCOc1cccc(c1)-c1ccnc(n1)N2 — IC50 (CDK2): 22 nM
Cc1ccc(-c2cc(C(F)(F)F)nn2-c2ccc(C(N)=S)cc2)cc1 — IC50 (PTGS2; inhibitor): 7070 nM
CN1C/C=C/CCOc2cccc(c2)-c2ccnc(n2)Nc2cc(cc(NC(=O)N3CCOCC3)c2)C1 — IC50 (CDK2): 87 nM
CN1CCN(c2ccc3nc(-c4c(N)c5ccccc5[nH]c4=O)[nH]c3c2)CC1 — IC50 (KDR; inhibitor): 42 nM
COc1ccc(CNc2c(CO)cnc3c(C4CC4)cc(C#N)cc23)cc1Cl — IC50 (cGMP-dependent 3',5'-cyclic phosphodiesterase (PDE2A, Homo sapiens, UniProt O00408)): > 10000 nM
O=C(O)C=Cc1ccc(O)cc1 — IC50 (PTGS2; inhibitor): 36500 nM
CCc1cccc(CC)c1NC(=O)c1nn(C)c2c1CCc1cnc(Nc3ccc(C(=O)N4CCC[C@H]4CN4CCCC4)cc3OC)nc1-2 — IC50 (CDK2): 1 nM
Cc1c(C2(c3ccc(C(F)(F)F)nc3)CC2)c[nH]c1C(=O)N[C@H](C)c1nc[nH]n1 — IC50 (Dihydroorotate dehydrogenase (quinone), mitochondrial (DHODH, Homo sapiens, UniProt Q02127)): > 100000 nM
COCC(=O)N1CCC[C@H](C(=O)NCc2nc(-c3ccccc3)cs2)C1 — IC50 (PSMB1/PSMB8/PSMB3; enzyme activity, inhibitor): > 30000 nM
NC(=O)N1CCC(CC(=O)N2CCC([C@H]3c4ncc(Br)cc4CCc4cc(Cl)cc(Br)c43)CC2)CC1 — IC50 (farnesyltransferase; enzyme activity; added: N-ras substrate): 2.8 nM
CC1(C)c2cc(OCCN3CCOCC3)ccc2C(=O)c2c1oc1cc(C#Cc3cc(OCC4CC4)ccn3)ccc21 — IC50 (KDR; inhibitor): 757 nM
CCN1CCN(Cc2ccc(C(=O)N[C@@H](CCCNC(=N)N)C(=O)NC(CC(=O)NC(Cc3ccsc3)C(N)=O)CC(C)C)cc2)CC1 (stereo partly shown) — IC50 (CDK2): 17400 nM
CNC(C)C1CCC(N)C(OC2C(N)CC(N)C(OC3OCC(C)(O)C(NC)C3O)C2O)O1 (stereo not shown) — MIC (Acinetobacter baumannii; clinical isolate RKI-No_13/16): > 8 µg/mL

Repeated from above:
O=C(O)C=Cc1ccc(O)cc1 — IC50 (PTGS2; inhibitor): 36500 nM
CCc1cccc(CC)c1NC(=O)c1nn(C)c2c1CCc1cnc(Nc3ccc(C(=O)N4CCC[C@H]4CN4CCCC4)cc3OC)nc1-2 — IC50 (CDK2): 1 nM
